Measured values gathered from unrelated publications.
Each line is one published result; not all experiments were run side by side. Several values in a cell are separate wells, animals, samples, runs or records. Numbers after ± are the reported error.
NCEH1: Neutral cholesterol ester hydrolase 1 (NCEH1, Homo sapiens, UniProt Q6PIU2)
Chain of UniProt P27361 (whole entry, looked up): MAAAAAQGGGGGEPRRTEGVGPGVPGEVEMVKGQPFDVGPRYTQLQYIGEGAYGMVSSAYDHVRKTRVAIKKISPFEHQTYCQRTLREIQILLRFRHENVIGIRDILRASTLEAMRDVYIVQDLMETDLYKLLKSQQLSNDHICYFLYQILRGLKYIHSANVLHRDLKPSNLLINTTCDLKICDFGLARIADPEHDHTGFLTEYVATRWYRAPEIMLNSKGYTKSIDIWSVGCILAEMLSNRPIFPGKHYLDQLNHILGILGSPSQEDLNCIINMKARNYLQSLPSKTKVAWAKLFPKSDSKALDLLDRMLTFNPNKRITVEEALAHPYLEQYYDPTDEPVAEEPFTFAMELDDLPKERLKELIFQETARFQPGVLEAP
Chain of UniProt Q6PIU2 (whole entry, looked up): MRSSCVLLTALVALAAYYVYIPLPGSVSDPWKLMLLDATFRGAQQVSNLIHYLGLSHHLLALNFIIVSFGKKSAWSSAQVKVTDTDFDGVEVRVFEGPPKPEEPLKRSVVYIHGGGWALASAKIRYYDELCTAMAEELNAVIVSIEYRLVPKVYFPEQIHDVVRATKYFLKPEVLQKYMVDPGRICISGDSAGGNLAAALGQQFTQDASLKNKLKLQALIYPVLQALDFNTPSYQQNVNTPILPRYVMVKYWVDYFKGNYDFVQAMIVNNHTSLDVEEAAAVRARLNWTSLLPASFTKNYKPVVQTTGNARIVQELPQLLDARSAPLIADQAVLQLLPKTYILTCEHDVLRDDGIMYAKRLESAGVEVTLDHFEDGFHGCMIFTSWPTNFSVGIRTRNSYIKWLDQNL
Chain of UniProt Q9NS75 (whole entry, looked up): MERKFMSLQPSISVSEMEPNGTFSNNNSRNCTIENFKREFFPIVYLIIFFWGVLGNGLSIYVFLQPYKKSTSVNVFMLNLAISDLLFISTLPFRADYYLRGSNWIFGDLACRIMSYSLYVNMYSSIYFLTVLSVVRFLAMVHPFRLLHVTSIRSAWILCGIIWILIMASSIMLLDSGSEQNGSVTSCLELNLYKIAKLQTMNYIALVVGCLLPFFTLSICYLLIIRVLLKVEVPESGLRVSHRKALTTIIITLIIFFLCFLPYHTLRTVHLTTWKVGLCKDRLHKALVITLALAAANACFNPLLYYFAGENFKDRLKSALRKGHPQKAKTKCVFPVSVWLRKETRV
Chain of UniProt P09690 (whole entry, looked up): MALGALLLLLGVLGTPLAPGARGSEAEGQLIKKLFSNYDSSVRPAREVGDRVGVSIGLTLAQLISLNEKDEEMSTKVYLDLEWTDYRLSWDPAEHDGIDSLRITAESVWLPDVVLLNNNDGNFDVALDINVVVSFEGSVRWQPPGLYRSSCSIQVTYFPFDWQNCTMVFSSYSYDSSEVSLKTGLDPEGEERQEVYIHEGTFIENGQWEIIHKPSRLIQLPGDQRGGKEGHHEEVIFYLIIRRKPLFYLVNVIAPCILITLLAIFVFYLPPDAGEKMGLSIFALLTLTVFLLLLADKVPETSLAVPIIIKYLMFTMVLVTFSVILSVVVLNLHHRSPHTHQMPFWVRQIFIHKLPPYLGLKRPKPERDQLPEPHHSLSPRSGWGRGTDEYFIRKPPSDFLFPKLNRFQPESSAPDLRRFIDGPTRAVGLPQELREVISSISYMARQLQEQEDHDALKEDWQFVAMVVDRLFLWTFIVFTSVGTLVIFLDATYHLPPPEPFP
Chain of UniProt P0A0C1 (whole entry, looked up): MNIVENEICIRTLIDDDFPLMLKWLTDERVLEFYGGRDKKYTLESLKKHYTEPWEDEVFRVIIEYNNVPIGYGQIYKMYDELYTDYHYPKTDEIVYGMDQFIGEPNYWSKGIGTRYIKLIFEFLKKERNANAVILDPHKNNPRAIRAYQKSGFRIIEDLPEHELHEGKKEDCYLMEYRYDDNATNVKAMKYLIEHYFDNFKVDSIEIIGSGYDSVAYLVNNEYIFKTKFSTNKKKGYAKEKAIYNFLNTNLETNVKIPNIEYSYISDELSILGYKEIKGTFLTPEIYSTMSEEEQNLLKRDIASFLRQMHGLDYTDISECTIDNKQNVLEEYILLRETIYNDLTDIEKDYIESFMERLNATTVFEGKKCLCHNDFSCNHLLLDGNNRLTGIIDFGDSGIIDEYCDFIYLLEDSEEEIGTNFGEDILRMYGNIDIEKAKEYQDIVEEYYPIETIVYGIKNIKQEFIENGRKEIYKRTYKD
Chain of UniProt P02716 (whole entry, looked up): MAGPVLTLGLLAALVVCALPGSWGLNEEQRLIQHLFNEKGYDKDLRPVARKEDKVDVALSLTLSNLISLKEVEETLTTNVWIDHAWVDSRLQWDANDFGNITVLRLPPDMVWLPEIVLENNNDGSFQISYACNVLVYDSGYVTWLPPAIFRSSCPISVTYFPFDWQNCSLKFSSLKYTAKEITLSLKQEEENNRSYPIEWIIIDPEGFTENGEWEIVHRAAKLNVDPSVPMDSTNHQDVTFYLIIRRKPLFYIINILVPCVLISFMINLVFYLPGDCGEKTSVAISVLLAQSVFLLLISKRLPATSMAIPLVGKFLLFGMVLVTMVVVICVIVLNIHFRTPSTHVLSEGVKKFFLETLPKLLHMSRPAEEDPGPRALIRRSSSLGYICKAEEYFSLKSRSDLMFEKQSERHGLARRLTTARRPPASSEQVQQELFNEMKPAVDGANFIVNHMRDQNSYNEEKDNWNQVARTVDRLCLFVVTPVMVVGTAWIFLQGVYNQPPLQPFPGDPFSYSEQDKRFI
Chain of UniProt P08913 (whole entry, looked up): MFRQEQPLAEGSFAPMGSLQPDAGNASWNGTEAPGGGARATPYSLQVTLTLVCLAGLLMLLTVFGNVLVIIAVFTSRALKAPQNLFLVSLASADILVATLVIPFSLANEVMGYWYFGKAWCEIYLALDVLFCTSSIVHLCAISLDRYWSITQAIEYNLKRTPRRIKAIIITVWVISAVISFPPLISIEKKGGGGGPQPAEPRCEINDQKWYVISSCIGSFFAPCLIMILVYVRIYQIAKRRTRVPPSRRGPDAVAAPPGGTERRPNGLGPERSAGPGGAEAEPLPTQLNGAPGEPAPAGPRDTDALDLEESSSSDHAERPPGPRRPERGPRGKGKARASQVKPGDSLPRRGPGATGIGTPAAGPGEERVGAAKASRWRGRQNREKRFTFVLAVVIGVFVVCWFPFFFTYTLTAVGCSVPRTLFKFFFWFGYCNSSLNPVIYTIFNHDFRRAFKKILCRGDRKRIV
Chain of UniProt Q06520 (whole entry, looked up): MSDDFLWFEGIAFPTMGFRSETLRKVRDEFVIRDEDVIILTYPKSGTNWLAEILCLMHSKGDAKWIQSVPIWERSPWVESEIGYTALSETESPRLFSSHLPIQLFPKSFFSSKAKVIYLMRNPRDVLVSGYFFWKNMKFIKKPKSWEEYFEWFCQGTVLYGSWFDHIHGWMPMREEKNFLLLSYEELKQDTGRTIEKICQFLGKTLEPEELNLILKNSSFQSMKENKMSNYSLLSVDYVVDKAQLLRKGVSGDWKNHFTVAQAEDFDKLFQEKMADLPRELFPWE
Chain of UniProt G5EBR3 (whole entry, unmodified, looked up): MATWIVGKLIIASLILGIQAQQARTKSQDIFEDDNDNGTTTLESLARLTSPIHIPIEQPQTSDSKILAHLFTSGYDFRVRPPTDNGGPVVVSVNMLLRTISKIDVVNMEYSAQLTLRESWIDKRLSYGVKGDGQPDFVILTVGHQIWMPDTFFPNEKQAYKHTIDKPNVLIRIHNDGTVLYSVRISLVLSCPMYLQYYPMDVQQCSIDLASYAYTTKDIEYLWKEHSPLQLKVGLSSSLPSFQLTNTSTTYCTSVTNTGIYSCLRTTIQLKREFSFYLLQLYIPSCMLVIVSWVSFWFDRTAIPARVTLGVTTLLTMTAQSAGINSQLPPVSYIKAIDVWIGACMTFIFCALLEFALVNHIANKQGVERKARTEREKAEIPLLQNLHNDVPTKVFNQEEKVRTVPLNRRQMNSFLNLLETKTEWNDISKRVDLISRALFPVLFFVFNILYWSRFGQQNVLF
Chain of UniProt P51955 (whole entry, looked up): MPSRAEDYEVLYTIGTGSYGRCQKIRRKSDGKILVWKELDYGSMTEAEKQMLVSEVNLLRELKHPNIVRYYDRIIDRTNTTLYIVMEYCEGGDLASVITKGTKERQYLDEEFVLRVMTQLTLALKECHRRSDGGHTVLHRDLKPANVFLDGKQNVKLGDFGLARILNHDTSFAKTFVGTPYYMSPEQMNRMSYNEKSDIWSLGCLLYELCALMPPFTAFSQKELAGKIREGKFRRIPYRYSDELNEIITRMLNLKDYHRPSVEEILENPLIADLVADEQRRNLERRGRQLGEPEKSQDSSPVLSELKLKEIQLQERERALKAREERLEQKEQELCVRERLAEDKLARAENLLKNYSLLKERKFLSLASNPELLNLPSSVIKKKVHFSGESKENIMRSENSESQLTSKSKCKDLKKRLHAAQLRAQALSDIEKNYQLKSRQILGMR
Chain of UniProt Q96PN8 (whole entry, looked up): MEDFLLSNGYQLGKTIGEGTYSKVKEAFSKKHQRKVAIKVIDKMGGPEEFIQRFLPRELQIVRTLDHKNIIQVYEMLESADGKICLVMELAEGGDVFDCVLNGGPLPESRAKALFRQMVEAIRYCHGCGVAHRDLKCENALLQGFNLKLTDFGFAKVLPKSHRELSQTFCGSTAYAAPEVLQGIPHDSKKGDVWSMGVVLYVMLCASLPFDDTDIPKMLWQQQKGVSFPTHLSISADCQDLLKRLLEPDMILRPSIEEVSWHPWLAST
Chain of UniProt P11234 (whole entry, unmodified, looked up): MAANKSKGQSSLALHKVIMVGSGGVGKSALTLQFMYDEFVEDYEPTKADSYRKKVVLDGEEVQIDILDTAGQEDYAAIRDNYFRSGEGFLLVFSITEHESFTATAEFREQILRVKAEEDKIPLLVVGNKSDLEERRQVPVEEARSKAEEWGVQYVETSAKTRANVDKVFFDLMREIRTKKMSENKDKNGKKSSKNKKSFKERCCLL

Structure (SMILES) | target | assay | test system | setting | scale | quantity | value
COc1ccc(F)cc1C(=O)NCc1ccc(-c2nn([C@@H](C)C(F)(F)F)c(N)c2C(N)=O)cc1 | PTK6 (Homo sapiens, UniProt Q13882) | enzyme activity | – | – | relative to: PTK6 over BTK | selectivity ratio | 17.2
C#CCCCCNC(=O)CI | NCEH1 | mass spectrometry profiling | H460 cell lysate | 100 µM over 10 µM, UniProt Q6PIU2 | relative to: high over low concentration | reactivity ratio | 1.76
O=S(=O)(F)c1ccc(S(=O)(=O)Nc2cc(OC(F)(F)F)cc(C3CC3)c2)c2c1CCCC2 | RALB (Homo sapiens, UniProt P11234, Y82F) | inhibitor, BODIPY-FL-GDP exchange | – | concentration not given, 24 h, 4 °C, together with: Rgl2 | – | nucleotide exchange | no inhibition
CN(C(=O)n1cnc(-c2ccc[n+]([O-])c2)c1)C1CCCCC1 | Faah (Rattus norvegicus, UniProt P97612) | probe labelling, inhibitor, competitive ABPP | rat brain membrane fraction | 100 µM, together with: azido-FP probe | – | inhibition | 99.5%
C[C@H]1COCCN1c1nc(NCc2cccnc2C(F)(F)F)c2cccnc2n1 | ADRA2A (Homo sapiens, UniProt P08913) | binding | – | CEREP panel | – | IC50 | > 100 µM
Oc1c(Cl)cc(-c2ccccc2)cc1Cl | SULT2A1 (Homo sapiens, UniProt Q06520) | substrate | – | pH 7.0, 37 °C, together with: PAPS 200 µM | – | Vmax | 44.3 ± 3.9 nmol/min/mg
O=C(c1ccc(Cl)cc1)N1CCN2C(=O)N(OC(=O)N3CCOc4ccccc43)C(=O)C2C1 (stereo not shown) | NCEH1 | enzyme activity, inhibitor, MS-based ABPP | SW-620 in situ | 10 µM, 2 h, 37 °C | relative to: compound over DMSO, lower = stronger inhibition | median ratio | 1.03
CN1CCN(c2cc(-c3ccncc3)c(-c3ccc4ccccc4c3)nn2)CC1 | CYSLTR2 (Homo sapiens, UniProt Q9NS75) | agonist, FLIPR | – | 12.5 µM | – | activation | -1.7%
N[C@@H](CCC(=O)O)C(=O)O | Glutamate-gated chloride channel alpha (glc-1, Caenorhabditis elegans, UniProt G5EBR3, del364-370/del374-421/R372G) | ion current, agonist, two-electrode voltage clamp | Xenopus oocytes | – | – | Hill coefficient | 0.9
C[C@H]1CN(c2n[nH]c3nc(N[C@H]4CC[C@H](NS(=O)(=O)CCC(F)(F)F)CC4)ncc23)CCO1 | PRKACA (Homo sapiens, UniProt P17612) | inhibitor, Kinobeads competition profiling | – | 0.8 µM | relative to: vehicle | relative abundance | 1.07
Nc1ncc(-c2nc(N3CCOCC3)nc(N3CCOCC3)n2)c(C(F)F)n1 | MUSK (Homo sapiens, UniProt O15146) | KINOMEscan | – | 10 µM | – | remaining binding | 92%
C[N+]1(C)CCN(c2ccccc2)CC1 | Nicotinic acetylcholine receptor alpha1/beta1/epsilon/delta (Mus musculus, UniProt P02716+P04756+P09690+P20782) | peak current, agonist, two-electrode voltage clamp | Xenopus oocytes | 30 µM, mouse receptor | relative to: ACh 30 µM | response relative to ACh | 10%
COc1ccc(N2C(=O)N(c3c(C)cccc3Cl)Cc3cnc(Nc4ccc(C5CCN(C)CC5)cc4OC)nc32)nc1 | TSSK3 (Homo sapiens, UniProt Q96PN8) | kinase activity | – | 0.5 µM | – | inhibition | 7%
COC(=O)[C@@]1(O)C[C@H]2O[C@]1(C)n1c3ccccc3c3c4c(c5c6ccccc6n2c5c31)C(=O)NC4 | MAPK3 (Homo sapiens, UniProt P27361) | ADP-Glo | – | 3.81 nM, together with: MBP substrate | – | kinase activity | 70.5% and 87.9% and 101%
[2H]c1c([2H])c([C@]2([2H])CCCN2C(=O)C(C)(C)Oc2ccc3cn[nH]c3c2)c([2H])c([2H])c1C([2H])([2H])[2H] | NEK2 (Homo sapiens, UniProt P51955) | KINOMEscan | – | 1 µM | relative to: DMSO control | remaining binding | 63%
Clc1ccc(COc2ccccc2CNCc2ccncc2)cc1 | aacA-aphD, AAC(6')-Ie domain (Staphylococcus aureus, UniProt P0A0C1) | neomycin acetylation, inhibitor | – | together with: neomycin | – | highest concentration without inhibition | > 200 µM

Some of these lines once more:
Structure (SMILES) | target | assay | test system | setting | scale | quantity | value
Nc1ncc(-c2nc(N3CCOCC3)nc(N3CCOCC3)n2)c(C(F)F)n1 | MUSK (Homo sapiens, UniProt O15146) | KINOMEscan | – | 10 µM | – | remaining binding | 92%
O=S(=O)(F)c1ccc(S(=O)(=O)Nc2cc(OC(F)(F)F)cc(C3CC3)c2)c2c1CCCC2 | RALB (Homo sapiens, UniProt P11234, Y82F) | inhibitor, BODIPY-FL-GDP exchange | – | concentration not given, 24 h, 4 °C, together with: Rgl2 | – | nucleotide exchange | no inhibition
